Experimental data of several laboratories.
Compare with care: the assays were run in different laboratories. Values joined by “and” are separate records of one study, mostly repeats; a detail may differ. ± marks the error that the study gave.

N#C/C(=C\c1ccc(O)c(O)c1)C(=O)c1ccc(O)c(O)c1  [3H]ryanodine binding (ryanodine receptor 2 (Sus scrofa, UniProt A0A5G2R1W3); inhibitor; cardiac SR vesicles; concentration not given, added: Ca2+ 30 µM): inhibited
Cc1ccc(C)c2sc(NC(=O)C3CCN(S(=O)(=O)c4ccc(F)cc4)CC3)nc12  OEA/NOPE ratio (N-acyl-phosphatidylethanolamine-hydrolyzing phospholipase D (Napepld, Mus musculus, UniProt Q8BH82); activator, LC-MS/MS; 10 or 20 µM, 90 min, added: NOPE substrate): increased
COc1cccc(C(=O)N[C@H]2[C@@H](O)[C@@H](CO)O[C@@H](S[C@@H]3O[C@H](CO)[C@H](O)[C@H](NC(=O)c4cccc(OC)c4)[C@H]3OS(=O)(=O)O)[C@@H]2O)c1  binding stoichiometry (Galectin-3 (LGALS3, Homo sapiens, UniProt P17931); ITC; concentration not given, all parameters fitted): 1.01
CC(C)[C@H]1CC[C@@]2(CO2)[C@@H]2[C@@H]1C=C(C(=O)O)C[C@H]2O  KI(inact) (Glyceraldehyde-3-phosphate dehydrogenase (GAPDH, Homo sapiens, UniProt P04406); covalent inhibitor): 4.7 ± 0.5 mM
COc1cccc(-c2nc(Nc3nc4ccccc4o3)ncc2C#N)c1  maximal response (Metabotropic glutamate receptor 5 (Grm5, Rattus norvegicus, UniProt P31424); calcium mobilization, negative allosteric modulator; added: glutamate EC80; baseline: maximal glutamate response): 2.4 ± 0.3%
CC(=O)N/C(N)=N/C(=N\S(=O)(=O)c1ccc(C(F)(F)F)cc1)N1C[C@H](c2ccccc2)C(c2ccc(Cl)cc2)=N1  potency reduction (Cannabinoid receptor 1 (CNR1, Homo sapiens, UniProt P21554, S123A); β-arrestin 2 signalling; concentration not given, S123A mutant; baseline: wild type): 4 fold
C[n+]1cn(C2OC(COP(=O)(O)OP(=O)([O-])OP(=O)(O)OCC3OC(n4cnc5c(=O)[nH]c(N)nc54)C(O)C3O)C(O)C2O)c2nc(NCc3ccccc3)[nH]c(=O)c21 (stereo not drawn)  capping efficiency (DNA-directed RNA polymerase (Enterobacteria phage SP6, UniProt P06221); in vitro transcription, densitometry; short RNA): 80.5%
CNc1ccccc1C(=O)O[C@H]1C[C@H](n2cnc3c(N)ncnc32)O[C@@H]1COP(=O)(O)OP(=O)(O)O  ∆G of ligand binding (Unconventional myosin-Va (Gallus gallus, UniProt Q02440, D297C/G292C/I296C/S293C/V295G); van't Hoff analysis; concentration not given, added: 10 mM Mg2+): -7.8 ± 0.1 kcal/mol
CC(C)C[C@H](NC(=O)[C@H](Cc1ccc(O)cc1)NC(=O)[C@@H](CCCNC(=N)N)NC(=O)[C@@H](CO)NC(=O)[C@H](Cc1ccccc1)NC(=O)[C@H](CC1CCCCC1)NC(=O)[C@H](CC(=O)O)NC(=O)CCC(C(=O)O)N1CCCN2CCN(CCCN(CC(=O)O)CC2)CC1)C(=O)N[C@@H](Cc1c[nH]c2ccccc12)C(=O)N[C@@H](CO)C(=O)O (stereo partly drawn)  kon (Urokinase plasminogen activator surface receptor (Homo sapiens, UniProt Q03405); binding, SPR): 400000 M⁻¹ s⁻¹
Cc1ccc(C(=O)Nc2ccc(CP(=O)(O)O)cc2CP(=O)(O)O)cc1NC(=O)c1cccc(NC(=O)Nc2cccc(C(=O)Nc3cc(C(=O)Nc4ccc(CP(=O)(O)O)cc4CP(=O)(O)O)ccc3C)c2)c1  maximal inhibition (Coagulation factor XI (F11, Homo sapiens, UniProt P03951); enzyme activity, inhibitor; pH 7.4, 37 °C, added: S-2366 substrate): 68% and ~68%
CC(=O)N1CCC[C@H]1C(=O)N[C@@H](CC(C)C)C(=O)N[C@@H](Cc1c[nH]cn1)C(=O)N[C@@H](CO)C(=O)N[C@H](C(N)=O)[C@@H](C)OP(=O)(O)O  binding (Plk2 polo-box domain, human; isothermal titration calorimetry; concentration not given): no binding
NCc1ccc(NC(=O)c2ccc3ccccc3c2)cc1  inhibition (Transmembrane protease serine 2 (TMPRSS2, Homo sapiens, UniProt O15393); enzyme activity, inhibitor; 10 µM, added: Boc-QAR-AMC): < 20%

Excerpt of the above:
CC(C)C[C@H](NC(=O)[C@H](Cc1ccc(O)cc1)NC(=O)[C@@H](CCCNC(=N)N)NC(=O)[C@@H](CO)NC(=O)[C@H](Cc1ccccc1)NC(=O)[C@H](CC1CCCCC1)NC(=O)[C@H](CC(=O)O)NC(=O)CCC(C(=O)O)N1CCCN2CCN(CCCN(CC(=O)O)CC2)CC1)C(=O)N[C@@H](Cc1c[nH]c2ccccc12)C(=O)N[C@@H](CO)C(=O)O (stereo partly drawn)  kon (Urokinase plasminogen activator surface receptor (Homo sapiens, UniProt Q03405); binding, SPR): 400000 M⁻¹ s⁻¹
